Measured values from different studies.
Each line is one published result; not all experiments were run side by side.
Method: steady-state kinetics
B1: GlcAK1 (Arabidopsis thaliana, UniProt A0A1I9LRK4); chain KRVREEKMDPNSTVSGDGQATAAIEHRSFARIGFLGNPSDVYFGRTISLTIGNFWASVKLEPSEHLVIKPHPFHDLVQFTSLDHLLNRLQNEGYYGGVRLLMAICKVFRNYCKENDIQLHQANFSLSYDTNIPRQTGLSGSSAIVSAALNCLLDFYNVRHLIKVQVRPNIVLSAEKELGIVAGLQDRVAQVYGGLVHMDFSKEHMDKLGHGIYTPMDISLLPPLHLIYAENPSDSGKVHSMVRQRWLDGDEFIISSMKEVGSLAEEGRTALLNKDHSKLVELMNLNFDIRRRMFGDECLGAMNIEMVEVARRVGAASKFTGSGGAVVVFCPEGPSQVKLLEEECRKAGFTLQPVKIAPSCLNDSDIQTL
B2: xoxF1 (Methylorubrum extorquens, UniProt C5B120); chain NESVLKGVANPAEQVLQTVDYANTRYSKLDQINASNVKNLQVAWTFSTGVLRGHEGSPLVVGNIMYVHTPFPNIVYALDLDQGAKIVWKYEPKQDPSVIPVMCCDTVNRGLAYADGAILLHQADTTLVSLDAKSGKVNWSVKNGDPSKGETNTATVLPVKDKVIVGISGGEFGVQCHVTAYDLKSGKKVWRGYSIGPDDQLIVDPEKTTSLGKPIGKDSSLKTWEGDQWKTGGGCTWGWFSYDPKLDLMYYGSGNPSTWNPKQRPGDNKWSMTIWARNPDTGMAKWVYQMTPHDEWDFDGINEMILTDQKFDGKDRPLLTHFDRNGFGYTLDRATGEVLVAEKFDPVVNWATKVDLDKGSKTYGRPLVVSKYSTEQNGEDVNSKGICPAALGTKDQQPAAFSPKTGLFYVPTNHVCMDYEPFRVTYTPGQPYVGATLSMYPAPGSHGGMGNFIAWDNLQGKIKWSNPEQFSAWGGALATAGDVVFYGTLEGFLKAVDSKTGKELYKFKTPSGIIGNVMTYEHKGKQHVAVLSGVGGWAGIGLAAGLTDPNAGLGAVGGYAALSSYTNLGGQLTVFSLPNN
B3: STS (Homo sapiens, UniProt P08842); chain HAASRPNIILVMADDLGIGDPGCYGNKTIRTPNIDRLASGGVKLTQHLAASPLCTPSRAAFMTGRYPVRSGMASWSRTGVFLFTASSGGLPTDEITFAKLLKDQGYSTALIGKWHLGMSCHSKTDFCHHPLHHGFNYFYGISLTNLRDCKPGEGSVFTTGFKRLVFLPLQIVGVTLLTLAALNCLGLLHVPLGVFFSLLFLAALILTLFLGFLHYFRPLNCFMMRNYEIIQQPMSYDNLTQRLTVEAAQFIQRNTETPFLLVLSYLHVHTALFSSKDFAGKSQHGVYGDAVEEMDWSVGQILNLLDELRLANDTLIYFTSDQGAHVEEVSSKGEIHGGSNGIYKGGKANNWEGGIRVPGILRWPRVIQAGQKIDEPTSNMDIFPTVAKLAGAPLPEDRIIDGRDLMPLLEGKSQRSDHEFLFHYCNAYLNAVRWHPQNSTSIWKAFFFTPNFNPVGSNGCFATHVCFCFGSYVTHHDPPLLFDISKDPRERNPLTPASEPRFYEILKVMQEAADRHTQTLPEVPDQFSWNNFLWKPWLQLCCPSTGLSCQCDREKQDKRLSR
B4: EutE V13D (Escherichia coli, UniProt P77445); chain MNQQDIEQVVKADLLKMQSSDTPSAAVHEMGVFASLDDAVAAAKVAQQGLKSVAMRQLAIAAIREAGEKHARDLAELAVSETGMGRVEDKFAKNVAQARGTPGVECLSPQVLTGDNGLTLIENAPWGVVASVTPSTNPAATVINNAISLIAAGNSVIFAPHPAAKKVSQRAITLLNQAIVAAGGPENLLVTVANPDIETAQRLFKFPGIGLLVVTGGEAVVEAARKHTNKRLIAAGAGNPPVVVDETADLARAAQSIVKGASFDNNIICADEKVLIVVDSVADELMRLMEGQHAVKLTAEQAQQLQPVLLKNIDERGKGTVSRDWVGRDAGKIAAAIGLKVPQETRLLFVETTAEHPFAVTELMMPVLPVVRVANVADAIALAVKLEGGCHHTAAMHSRNIENMNQMANAIDTSIFVKNGPCIAGLGLGGEGWTTMTITTPTGEGVTSARTFVRLRRCVLVDAFRIV
B5: Ptgds (Mus musculus, UniProt O09114); chain QGHDTVQPNFQQDKFLGRWYSAGLASNSSWFREKKAVLYMCKTVVAPSTEGGLNLTSTFLRKNQCETKIMVLQPAGAPGHYTYSSPHSGSIHSVSVVEANYDEYALLFSRGTKGPGQDFRMATLYSRTQTLKDELKEKFTTFSKAQGLTEEDIVFLPQPDKCIQE
Sequence of UniProt J7SZ64 (whole entry, looked up): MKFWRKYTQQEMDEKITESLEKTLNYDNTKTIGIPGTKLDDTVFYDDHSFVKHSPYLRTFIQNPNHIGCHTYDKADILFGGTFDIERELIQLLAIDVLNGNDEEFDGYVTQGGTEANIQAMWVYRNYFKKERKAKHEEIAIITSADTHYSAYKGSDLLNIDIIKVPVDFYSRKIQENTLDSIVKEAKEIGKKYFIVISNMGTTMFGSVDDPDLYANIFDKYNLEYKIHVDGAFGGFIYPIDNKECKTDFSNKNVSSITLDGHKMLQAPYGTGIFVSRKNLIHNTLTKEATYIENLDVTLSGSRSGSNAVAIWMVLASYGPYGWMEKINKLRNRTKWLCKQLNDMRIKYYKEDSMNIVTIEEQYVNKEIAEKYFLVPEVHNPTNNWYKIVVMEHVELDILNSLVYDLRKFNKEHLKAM
Sequence of UniProt F4I907 (whole entry, looked up): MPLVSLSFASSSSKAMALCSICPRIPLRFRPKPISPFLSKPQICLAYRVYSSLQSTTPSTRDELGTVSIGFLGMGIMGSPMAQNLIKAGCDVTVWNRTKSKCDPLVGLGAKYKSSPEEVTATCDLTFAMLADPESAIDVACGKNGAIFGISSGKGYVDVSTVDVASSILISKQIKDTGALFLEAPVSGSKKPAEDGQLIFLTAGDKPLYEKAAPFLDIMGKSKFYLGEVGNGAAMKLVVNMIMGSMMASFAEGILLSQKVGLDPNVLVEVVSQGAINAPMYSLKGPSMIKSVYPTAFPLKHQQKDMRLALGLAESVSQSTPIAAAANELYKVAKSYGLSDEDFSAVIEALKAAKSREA

| Molecule | substrate | test system | conditions | Vmax |
| --- | --- | --- | --- | --- |
| B1 (GlcAK1) | Nc1ncnc2c1ncn2[C@@H]1O[C@H](COP(=O)(O)OP(=O)(O)OP(=O)(O)O)[C@@H](O)[C@H]1O |  | pH 7.5, 25 mM KCl, Hill fit, together with: 1 mM GlcA; 10 mM MgCl2 | 12.6 µmol/min/mg |
| protein I196L (UniProt Q52060) | CC=O | lysate | not purified, together with: CoA, NAD+ | 15 µmol/min/mg |
| B2 (xoxF1) | CO |  | 30 °C | 1.86 µmol/min/mg |
| ATIC (Cryptococcus neoformans, UniProt J9VJP1) | NC(=O)c1ncn([C@@H]2O[C@H](COP(=O)(O)O)[C@@H](O)[C@H]2O)c1N |  | pH 7.5, 37 °C, KCl 25 mM, apparent, together with: N10-formyl-tetrahydrofolate 0.1 mM | 6.7 µmol/min/mg |
| B3 (STS) | [H][C@@]12CC=C3C[C@@H](OS(=O)(=O)O)CC[C@]3(C)[C@@]1([H])CC[C@]1(C)C(=O)CC[C@@]21[H] |  | pH 7, 37 °C, not purified | 0.000883 µmol/min/mg |
| B4 (EutE V13D) | CC=O | lysate | not purified, together with: CoA, NAD+ | 11.5 µmol/min/mg |
| B5 (Ptgds) | [H][C@]12C[C@]([H])(OO1)[C@H](C/C=C\CCCC(=O)O)[C@H]2/C=C/[C@@H](O)CCCCC |  | pH 8, 25 °C | 5.4 µmol/min/mg |
| aromatic amino acid decarboxylase (Clostridium sporogenes, UniProt J7SZ64) | N[C@@H](Cc1c[nH]c2c(Br)cccc12)C(=O)O |  | pH 7, 37 °C, not purified, together with: PLP 40 µM | 0.3 µmol/min/mg |
| GLYR2 (Arabidopsis thaliana, UniProt F4I907) | NC(=O)C1=CN([C@@H]2O[C@H](COP(=O)(O)OP(=O)(O)OC[C@H]3O[C@@H](n4cnc5c(N)ncnc54)[C@H](OP(=O)(O)O)[C@@H]3O)[C@@H](O)[C@H]2O)C=CC1 |  | pH 7.6, 30 °C, cofactor varied | 23 µmol/min/mg |
| pat (Salmonella enterica, UniProt Q8ZMX2) | CC(=O)SCCNC(=O)CCNC(=O)[C@H](O)C(C)(C)COP(=O)(O)OP(=O)(O)OC[C@H]1O[C@@H](n2cnc3c(N)ncnc32)[C@H](O)[C@@H]1OP(=O)(O)O |  | pH 7.5, 37 °C, apparent, sigmoidal fit, together with: AcsC 400 µM | 2.7 µmol/min/mg |

A few entries again:
| Molecule | substrate | test system | conditions | Vmax |
| --- | --- | --- | --- | --- |
| ATIC (Cryptococcus neoformans, UniProt J9VJP1) | NC(=O)c1ncn([C@@H]2O[C@H](COP(=O)(O)O)[C@@H](O)[C@H]2O)c1N |  | pH 7.5, 37 °C, KCl 25 mM, apparent, together with: N10-formyl-tetrahydrofolate 0.1 mM | 6.7 µmol/min/mg |
